Results from different studies.
Each numbered part is a random draw from the data of one study; scales do not carry over between parts.

Block 1
Target: RNA binding protein fox-1 homolog 2, RRM domain, GST-SBP tag (RBFOX2, Homo sapiens, UniProt O43251-10, residues 100-194)
Technique: RNA Bind-n-Seq
Form: RNA
Matrix: in vitro
Tested at: 365 nM
Setting: natural RNA segment, single round, ends assumed
Reference: no-protein control
Direction: higher = stronger binding
Constant ends, left off below: GGGAGUUCUACAGUCCGACGAUC … UGGAAUUCUCGGGUGCCAA
Construct (chain): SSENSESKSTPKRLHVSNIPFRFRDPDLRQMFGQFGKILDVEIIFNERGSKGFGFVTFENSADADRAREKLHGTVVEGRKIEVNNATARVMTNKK
Strand	RBNS enrichment (R)
ACAGAGUGACAAGAAACUGGCUAGUUUGCUAUAAAUCCUACAUUCUGUUUGAUACCUUGAGAGCAGAUACCUGGUCAGCGAGCUUUUAGGGGGGGGCGUUCAAAGGAAGC	0.514
GCCGCCGGUAACAGGGGCCGCCGGCCAAAGGCCCCUUUCCAGUCAUAGCACUGAAGUUGCAACUUUUUUCUUGUAAUUGUUUUGCUACUAAGAUAAUUUCAGAAGUUCAG	0.605
CAUCAUCAGGGAGUGGUGUAGUCAGUUGAAGGCAGUUCCCACCGAGUUUUCCGAGCCUCAGAAUCCAGGAGAUACGCACAGCCCCACCCACUCUGAGAUGACAGUGGCUG	4.42
CGGUUUCUCCCAUCCGUGUUCCAGCAUCUAACCUUUUACUUUUGCAUAGGAAAUACUUGAUUUAAUUACAGGUCCAGGGAUGAGCUGAUGGUUGCUGGAGGAGGCCAGUG	0.409
UAUUUAGCACUUGAAAAUCAACAAAUCCAGAAUUUAAAAAAAUGCCACAGACUUUUCAAAGCCCAACUCUACUUUUUUGAGAAUUUGUCCGUACCUACUAAUAUGCCUUA	0.787
CUGCGAAGUUUCGUUGGAUUUUAUUUUAUGUCCUUCAGAGCACCCUCCCCCACCCACUAGGGUCCAGAAGAGCAAUGGAGGAAGUGACAGCUAAUGGUGCAGUUCUAAAU	0.186
UCAAUCAUGGCCUUCACUGAGUGCUUUUGAGAUCCCAGUGCUAAUGUUUUAACUGCCUUUCUGUUGAACUGUGGGGCUCUGAUUUGUGUCUAGAUUAUUGUAUAUUCUCA	0.797
CCACCUGCCCCCUGCGUAGGCACCCAGACUUGGAGAGACCCGUCUGCUGUUAAUACUUCCAUCCUCUUCCUUCCCAAAGAGCAGAUCCCAAGGCAUUUACUCCUUGGUCU	0.505
AAAACGAUGCCUGCAAAAUUUGAAGGAAUGCAAUUCUGAUUUGCCAUUUAUCAGGGAAAACUGAAAGCAUUUUUCUUAUAACUUUUUUUCUUUUUCUUUUUUUUUGGAGG	1.16
CUAAGACCAAGGACCUCUCAUGUGCAAGAUGGAGUAUUUGGUACCCAGUUAGAGCCCCUGGAAGUCCUCUUUCAGUUAGUGGCAAGCCACAUAUCCUGGAUCACAAAGCA	6.1
CAGCAGCUGCAGACAUGUUUGGGAAUAUGAGAGCAUGUUCGCAGACCCACCAGGUUCUGUGUCCUAUGGGCUACACCUGGCUCCAGCAAGAAUGCCUGCCAUGGGCACUU	1.44
GAAAAGGGGGCAAGGUUUUGGCAUUAGAUGCACUUAACCCGGCUUCCACCAGCUUCUUCCCCUCUUCUCAGUCAUUACUGAGAAGGAUUGGUAUUCAAAGCAAAACUGAC	0.195

Block 2
Target: RING finger protein unkempt homolog, zinc fingers 1-6, GST-SBP tag (UNK, Homo sapiens, UniProt Q9C0B0, residues 30-357)
Technique: RNA Bind-n-Seq
Form: RNA
Matrix: in vitro
Tested at: not given
Setting: RNA with constant flanks, human and mouse sites, ends assumed
Reference: input RNA pool
Direction: higher = stronger binding
Constant ends, left off below: GGGAGUUCUACAGUCCGACGAUC … CAACAGAGGAUUGAGCAUCA
Residues (chain): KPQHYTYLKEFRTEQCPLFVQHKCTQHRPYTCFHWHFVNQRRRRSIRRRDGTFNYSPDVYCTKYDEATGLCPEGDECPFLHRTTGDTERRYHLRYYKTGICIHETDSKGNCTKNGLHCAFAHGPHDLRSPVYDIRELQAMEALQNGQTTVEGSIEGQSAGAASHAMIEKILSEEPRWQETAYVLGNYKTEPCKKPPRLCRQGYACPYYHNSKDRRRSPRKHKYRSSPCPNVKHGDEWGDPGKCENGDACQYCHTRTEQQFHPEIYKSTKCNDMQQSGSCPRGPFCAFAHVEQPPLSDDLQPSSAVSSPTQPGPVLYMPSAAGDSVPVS
Strand	bound/input enrichment [ratio]
ACUGAAACAGUACCAGCAAGUCAUGAGAUUUUUUAGUAAAGAUGAGAAAGAUGGUUGAAGAAAAUUAGUGCAUAAUUUCUCAGUGAAUAAAGUUGUAGCUCUCAUAUACUAAAUAGACAA	3.3
UUUGCAAAUUAUAUUGCCAGAGACACACGUCGUCUUGGUGCAACAAUACUAGACCGUAUACAUAGUCUUCAAAUUAAUAGCAGUUUGAGCACCUACUCUCUCGUAGACUCUGUUGGAAAU	8.56
UUAACGCUUUCUAAGUGAAUGCAGCAUGUGAUGGUAUUUUAAAGUGUGUUCCCAUGUGACAAUUUUAUAAAAGUUUGUUACCUUGCAAUUUUAUUUCAAAACAUAAAUUCAGAUUUAAAA	0.187
CCUGUAAGCACCUGUUUUUCCAUGGAAUGGGGUUAAUGAGUAGGUAGAAAAGGAAAAGGAAUAAUCAGUAGGAGCUGACAACCAGUGACCAUAUAAGCAGCUGAUUGCCUGUAAUUAGUC	1.45
GAGUGUGUCGGAAUCCCGUGCUUAAAAUACGCUCUUAAAUUAUUUUCUAGUCUUAUUUUACAAUGUCUCAUUGUAGUCUGUCUUCAACUAUUUUAUCCAAAAUAAACCUCCAGAAGAAAG	28.9
GGGCCUCUGUUCAAUACUGACUAUGACAUCCUUAAAAGCAACUUGCAGAACUGCAGCAAAUUUAGUGCUAUACAAUGUGCAGCUGCCGUCCCUAGAGCUCCUGCUGAAUCCUCUUCGUCU	0.437
GAAUUCAUGCAUGAGACCCAUGAUGGAGUCCAGGAUAUGGCUUGUGACACAUUUAUUAAAAUAGCUCAAAAAUGCCGUAGGCAUUUUGUUCAGGUUCAAGUUGGAGAAGUAAUGCCGUUC	0.49
UGUUAUAUCACACCAAAGAGACCUCGAUCUUCUGCUAAAGAGUCACAUUACAAAUCUGCUGUUAGCAAGGACUUUCUCACUGAAGGAAAGGCAUCUGAUAGAACUAGCAGACAGCUGUUA	0.0964
UUCAAAGAAAGUGACCUGUCUCAUGUCCAGAACAAAAGUGCAUUUUUAUGUGGAGUUAUGAAGACCUACAGGCAAAGAGAGAAACAAGGCAGCAAGGUACAAGAGUCCACGAAAGGGCCC	0.254
GUGGACAUGGCAGCACAGGUGGCUGCAGGAAUGGCUUACAUCGAGCGCAUGAAUUAUAUCCAUAGAGAUCUGCGAUCAGCAAACAUUCUAGUGGGGAAUGGACUCAUAUGCAAGAUUGCU	0.583
UGAUGACUGCAUAGCAAACUGGCAGAUACAGUCCCCAUGGUCAGUGGCUGACCAGGGUGUCAUAGGCGCGAUCUCAAUUGCUAGAUGUGAGCACACGCUUGACAGUCUGUUUAGAAAUGU	0.25

Block 3
Target: Sal-like protein 4, full length isoform A (SALL4, Homo sapiens, UniProt Q9UJQ4, residues 1-1053)
UniProt Q9UJQ4, sequence (whole entry, looked up): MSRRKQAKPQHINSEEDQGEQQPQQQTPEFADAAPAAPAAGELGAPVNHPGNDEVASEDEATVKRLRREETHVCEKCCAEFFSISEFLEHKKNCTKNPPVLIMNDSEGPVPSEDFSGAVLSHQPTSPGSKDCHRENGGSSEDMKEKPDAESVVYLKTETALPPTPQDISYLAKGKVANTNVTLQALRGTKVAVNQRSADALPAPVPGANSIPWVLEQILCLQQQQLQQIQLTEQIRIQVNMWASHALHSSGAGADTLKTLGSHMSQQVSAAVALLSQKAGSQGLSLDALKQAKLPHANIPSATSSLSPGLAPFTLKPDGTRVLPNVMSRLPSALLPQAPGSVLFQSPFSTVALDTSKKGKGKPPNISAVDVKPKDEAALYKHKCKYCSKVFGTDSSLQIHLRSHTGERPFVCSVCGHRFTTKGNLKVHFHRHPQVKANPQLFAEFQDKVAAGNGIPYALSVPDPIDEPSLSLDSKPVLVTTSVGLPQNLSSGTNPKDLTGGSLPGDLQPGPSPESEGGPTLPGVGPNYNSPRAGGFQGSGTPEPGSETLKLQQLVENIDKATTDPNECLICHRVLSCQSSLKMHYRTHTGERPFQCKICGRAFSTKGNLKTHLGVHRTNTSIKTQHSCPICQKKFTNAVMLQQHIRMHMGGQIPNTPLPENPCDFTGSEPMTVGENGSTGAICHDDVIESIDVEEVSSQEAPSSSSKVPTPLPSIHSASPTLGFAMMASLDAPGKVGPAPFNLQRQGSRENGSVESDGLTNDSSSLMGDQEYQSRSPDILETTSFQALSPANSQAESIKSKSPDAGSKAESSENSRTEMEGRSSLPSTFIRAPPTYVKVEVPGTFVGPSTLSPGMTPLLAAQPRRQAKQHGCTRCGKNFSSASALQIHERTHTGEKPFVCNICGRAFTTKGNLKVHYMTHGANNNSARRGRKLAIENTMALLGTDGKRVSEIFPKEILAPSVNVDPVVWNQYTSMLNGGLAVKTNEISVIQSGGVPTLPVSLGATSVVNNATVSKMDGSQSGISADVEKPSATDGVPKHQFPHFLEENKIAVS
Technique: universal PBM
Form: double-stranded DNA, one strand shown
Matrix: in vitro
Tested at: 600 nM
Setting: 8-mer, flanks averaged, mean of replicates
Direction: higher = stronger binding
Strand	E-score
CAACAGAG	-0.0216
AAGTAGCA	0.0831
GCGTTGAA	-0.0857
CTCTGGCA	-0.2
TACCTCGA	0.0926
CAGAAGAG	-0.08
CCGTGCCA	-0.23
TACGAACA	0.179
CCGACATC	-0.109
AGGACCTC	-0.101
GCTCACAC	-0.235
AGTCCTCA	-0.0198
CGTACCAA	-0.0457
GGCGCGTA	-0.164
AATTTTGG	0.268
AACTACAC	0.131
ACGTCCCA	-0.18
ATAGGAAC	0.133
TCGACCGA	-0.137
AATGGTGC	-0.0707
ACGAAAGT	0.172
AGTGAGTG	-0.0885
GTCGTGCA	-0.0858
CATCAGTA	0.187
AGTCATGG	-0.00619

Block 4
Target: Histone acetyltransferase KAT6A, winged helix 2, GST fusion (KAT6A, Homo sapiens, UniProt Q92794, residues 85-181)
Technique: protein binding microarray
Form: double-stranded DNA, one strand shown
Matrix: in vitro
Tested at: not given
Setting: 8-mer, flanks averaged, mean of 2 arrays, mostly near background
Reference: not given
Direction: higher = stronger binding
Residues (chain): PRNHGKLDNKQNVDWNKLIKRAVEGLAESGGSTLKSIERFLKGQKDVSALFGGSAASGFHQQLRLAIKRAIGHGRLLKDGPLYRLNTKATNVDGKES
Strand	E-score
CGTGTGAG	-0.00258
GCCGAGTA	0.129
GGTTCAAA	0.017
CGATAGTA	-0.142
GGTTCCAC	0.0441
AATTTGGT	0.0121
TCCATACA	-0.114
CATTTTAA	0.0481
ACTGTCCC	-0.0673
ACACACCT	-0.0799
TATGACCA	-0.0929
TAGACACA	-0.106
ACCCTGCT	-0.0667
CGCTTACA	0.0214
CAACGCAC	0.0659
ATGCTGGA	0.115
AAAATGCC	0.0507
ATAAGCAT	-0.0272
TAAGTATA	0.0867
GGACACGA	0.00953
CCGCGTAA	0.0243

Block 5
Organism: Saccharomyces cerevisiae
Effect on: binding
Technique: yeast competitive growth sequencing
Form: peptide
Strain: cyclin D1-Cln2 strain
Matrix: peptide tiling library
Direction: direction not given
Molecule	enrichment score
FREFEVEKQTAEETGL	1.3
LFVPQRKLEVSTEDVH	-0.701
RRRRLLFWDKETQI	-2.34
IPDRSTKPVVFSPT	2.58
DSGFCLDSPGPLDSKE	2.3
DSDSDSEGGAAGGEAD	2.33
VEEEFFALRKRTPSAG	1.22
TLPYDLACTGGDFVLF	2.59
ELGMEHCEKFEISETS	1.74
NCKKRRALDFLSRLPL	-1.85
HRRRLLFACSPPPASQ	-1.59
NLEPNAEFDKRTEFIT	1.54
TQERKQIHCLSEDELS	1.58
VKTKKRLNFDDK	-0.377
SGYLTDENEVGFRG	1.56

Block 6
Target: PABPC1L2, full length, GST fusion (mouse, UniProt A0ABA7IW68)
Technique: RNAcompete
Form: RNA
Matrix: in vitro
Tested at: 20 nM
Setting: 7-mer, probes averaged, single round
Reference: mean of 7-mers
Direction: higher = stronger binding
Construct (chain): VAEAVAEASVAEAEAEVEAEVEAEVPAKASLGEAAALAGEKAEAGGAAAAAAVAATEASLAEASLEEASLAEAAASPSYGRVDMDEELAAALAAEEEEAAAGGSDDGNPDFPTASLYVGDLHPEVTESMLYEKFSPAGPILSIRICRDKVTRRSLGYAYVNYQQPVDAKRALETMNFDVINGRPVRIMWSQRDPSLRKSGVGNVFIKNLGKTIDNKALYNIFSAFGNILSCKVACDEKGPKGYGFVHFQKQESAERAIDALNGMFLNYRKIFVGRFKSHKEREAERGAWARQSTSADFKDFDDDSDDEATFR
Strand	7-mer Z-score
GGGGGCU	0.506
UUUCACG	-0.427
CCUUUGG	-0.421
AGCUAUG	-0.0446
GGCCGUC	-0.171
GAGCACA	0.128
UUGAUGC	-0.244
CUACGGC	-0.365
AAAUUUG	1.88
AUGGAUA	0.229
CGGAAGG	-0.0736
CGAAUCG	-0.188
CUAAGGU	-0.13
ACGUUCC	-0.335
AGUUGCU	-0.229
UGCAAUC	-0.199
CAAGGGG	0.425
UUCUAGA	-0.168
CAGUUGC	-0.195

Excerpt of the above (block 5):
Molecule	enrichment score
IPDRSTKPVVFSPT	2.58
VKTKKRLNFDDK	-0.377
TQERKQIHCLSEDELS	1.58
HRRRLLFACSPPPASQ	-1.59
NLEPNAEFDKRTEFIT	1.54
ELGMEHCEKFEISETS	1.74
RRRRLLFWDKETQI	-2.34
FREFEVEKQTAEETGL	1.3
DSGFCLDSPGPLDSKE	2.3
NCKKRRALDFLSRLPL	-1.85
DSDSDSEGGAAGGEAD	2.33
LFVPQRKLEVSTEDVH	-0.701
SGYLTDENEVGFRG	1.56
VEEEFFALRKRTPSAG	1.22
TLPYDLACTGGDFVLF	2.59
